Assay results of several laboratories.
Numbered parts are unrelated; each lists some results of a single study.

Set 1 — method: universal PBM; form: double-stranded DNA, one strand shown; medium: in vitro; concentration: not given; reading: higher = stronger binding
Target: Sal-like protein 4, full length isoform B (SALL4, Homo sapiens, UniProt Q9UJQ4-2, residues 1-616)
Setting: 8-mer, flanks averaged, mean of replicates
| Oligonucleotide | E-score |
| --- | --- |
| AGCTAGCC | -0.164 |
| ACTGAGCA | -0.131 |
| ATTGCTAG | 0.146 |
| CCCACCAC | -0.183 |
| AGCCCTAC | -0.112 |
| CCTTTCCG | -0.219 |

Set 2 — method: protein-binding microarray; form: double-stranded DNA, one strand shown; medium: in vitro; concentration: not given; reading: higher = stronger binding
Target: Max-binding protein MNT, bHLH-zipper, MAX partner unstated (MNT, Homo sapiens, UniProt Q99583, residues 220-300)
Setting: k-mer, scored over probes, only values ≥0.25
Target sequence (chain): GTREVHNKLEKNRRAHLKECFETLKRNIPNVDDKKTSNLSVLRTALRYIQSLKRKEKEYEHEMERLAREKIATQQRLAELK
| Oligonucleotide | E-score |
| --- | --- |
| ATGCACTC | 0.27 |
| CAGCGTGC | 0.414 |
| ACGCGCCT | 0.255 |
| CTGCGCAC | 0.254 |
| GCACGCCC | 0.32 |

Set 3 — method: RNA Bind-n-Seq; form: RNA; medium: in vitro; concentration: 1 µM; setting: whole 134-nt RNA, ends assumed; added: 150 mM KCl; baseline: input library; reading: higher = stronger binding
Target: Ras GTPase-activating protein-binding protein 1, C-terminal RGG region (G3BP1, Homo sapiens, UniProt Q13283)
UniProt Q13283, sequence (whole entry, looked up): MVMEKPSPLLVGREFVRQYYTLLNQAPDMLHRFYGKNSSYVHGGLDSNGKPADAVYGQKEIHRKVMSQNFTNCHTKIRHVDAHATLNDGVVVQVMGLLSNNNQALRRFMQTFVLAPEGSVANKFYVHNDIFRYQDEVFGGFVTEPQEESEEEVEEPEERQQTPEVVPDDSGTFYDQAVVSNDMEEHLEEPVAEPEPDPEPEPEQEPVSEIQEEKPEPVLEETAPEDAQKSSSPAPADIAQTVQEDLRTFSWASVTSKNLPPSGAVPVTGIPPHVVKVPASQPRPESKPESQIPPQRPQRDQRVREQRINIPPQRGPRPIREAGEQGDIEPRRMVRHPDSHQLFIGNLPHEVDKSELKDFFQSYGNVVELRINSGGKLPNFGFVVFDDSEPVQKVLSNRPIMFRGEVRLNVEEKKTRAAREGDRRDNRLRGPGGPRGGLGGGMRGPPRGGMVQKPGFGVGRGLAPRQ
Constant ends, left off below: GGGAGUUCUACAGUCCGACGAUC … UGGAAUUCUCGGGUGUCAAGG
| Oligonucleotide | log2 enrichment |
| --- | --- |
| CAAGUCCUGUGCUACACAUCGUAUGUACCGAAUCGGGUUUGGGUUUGGGGUUUGGAAAGUAUUAUGUUACGCCGUUCGGAUCUGCACUUC | -0.835 |
| UAACUUUAGAAGAGGAUCUGAUGGAUAUGGCAGUGGACGUGGAUUUGGGGAUGGCUAUAAUGGGUAUGGAGGAGGACCUGGAGGUGGCAA | -1.47 |
| UCCUCAAGUCCUGUGCUACACAUCGUAUGUACCGAAUCGGAGGGAGGGAGGGAAAGUAUUAUGUUACGCCGUUCGGAUCUGCACUUCCAG | 1.79 |
| UGGACAUGGAUUUUCAAGCCUACUUAGCUUCCUCUAGUGAAGAUGAAGAGGAGAUAGAAGAGGAGCUACAAGGUAUUGUUAAUCUUUCAG | -1.41 |
| GUCCUGUGCUACACAUCGUAUGUACCGAAUCGGGGUUUGGGGUGGGGUUUUUUUGGGGAAAGUAUUAUGUUACGCCGUUCGGAUCUGCAC | 1.75 |

Single results of other studies
| Substance | target | assay | system | setting | how to read | endpoint | result |
| --- | --- | --- | --- | --- | --- | --- | --- |
| PhoQ, residues 284 288 289 292 302 303 AAQSYM | PhoP, residues 12 14 15 18 19 LHHVQ (Escherichia coli, UniProt P23836) | Sort-seq, refers to: YFP reporter | E. coli | PhoQ-PhoP variant library, added: 10 µM Mg2+ | baseline: high Mg2+ state, higher = stronger signaling | fold induction | 18.5 |

Excerpt of the above (set 1):
| Oligonucleotide | E-score |
| --- | --- |
| AGCTAGCC | -0.164 |
